Results from different studies.
A part holds a random share of what one study measured. Several values in a cell are separate wells, animals, samples, runs or records.
UniProt Q9NYY3, sequence (whole entry, looked up): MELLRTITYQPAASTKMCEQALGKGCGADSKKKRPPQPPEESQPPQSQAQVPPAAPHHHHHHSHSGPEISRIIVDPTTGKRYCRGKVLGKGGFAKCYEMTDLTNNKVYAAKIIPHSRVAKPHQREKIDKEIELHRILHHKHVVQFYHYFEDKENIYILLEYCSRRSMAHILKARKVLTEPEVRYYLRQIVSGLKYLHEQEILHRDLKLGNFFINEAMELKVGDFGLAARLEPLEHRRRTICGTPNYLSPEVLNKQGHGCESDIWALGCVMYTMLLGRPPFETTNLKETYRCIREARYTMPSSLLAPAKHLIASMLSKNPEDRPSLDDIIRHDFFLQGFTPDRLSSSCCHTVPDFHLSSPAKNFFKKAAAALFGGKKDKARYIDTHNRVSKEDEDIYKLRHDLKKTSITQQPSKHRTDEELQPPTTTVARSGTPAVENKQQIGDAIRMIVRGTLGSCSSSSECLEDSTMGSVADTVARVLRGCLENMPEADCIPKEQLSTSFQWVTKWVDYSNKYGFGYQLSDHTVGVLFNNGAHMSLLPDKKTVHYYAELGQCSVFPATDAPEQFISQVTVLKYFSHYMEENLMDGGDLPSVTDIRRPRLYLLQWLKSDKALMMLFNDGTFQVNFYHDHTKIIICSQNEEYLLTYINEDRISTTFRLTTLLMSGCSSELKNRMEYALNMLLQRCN
UniProt Q9NQU5, sequence (whole entry, looked up): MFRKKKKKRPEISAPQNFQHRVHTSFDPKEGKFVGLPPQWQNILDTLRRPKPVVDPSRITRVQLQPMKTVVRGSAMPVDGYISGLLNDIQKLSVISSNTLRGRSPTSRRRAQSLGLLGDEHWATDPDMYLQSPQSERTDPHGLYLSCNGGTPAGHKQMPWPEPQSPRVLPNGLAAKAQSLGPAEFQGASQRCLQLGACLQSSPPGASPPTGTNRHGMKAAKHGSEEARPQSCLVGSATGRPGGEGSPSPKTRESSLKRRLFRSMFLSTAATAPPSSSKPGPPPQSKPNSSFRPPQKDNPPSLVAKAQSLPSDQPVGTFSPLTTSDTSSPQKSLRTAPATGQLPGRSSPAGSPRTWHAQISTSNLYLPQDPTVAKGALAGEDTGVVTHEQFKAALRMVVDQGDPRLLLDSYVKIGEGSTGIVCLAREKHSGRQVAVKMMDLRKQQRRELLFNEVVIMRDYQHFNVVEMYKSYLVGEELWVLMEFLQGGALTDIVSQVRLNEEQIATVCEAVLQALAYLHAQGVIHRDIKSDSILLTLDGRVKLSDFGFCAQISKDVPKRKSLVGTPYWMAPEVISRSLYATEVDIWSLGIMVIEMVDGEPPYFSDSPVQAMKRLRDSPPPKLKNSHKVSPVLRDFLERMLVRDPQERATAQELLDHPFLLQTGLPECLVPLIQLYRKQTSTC
UniProt Q9UM73, sequence (whole entry, unmodified, looked up): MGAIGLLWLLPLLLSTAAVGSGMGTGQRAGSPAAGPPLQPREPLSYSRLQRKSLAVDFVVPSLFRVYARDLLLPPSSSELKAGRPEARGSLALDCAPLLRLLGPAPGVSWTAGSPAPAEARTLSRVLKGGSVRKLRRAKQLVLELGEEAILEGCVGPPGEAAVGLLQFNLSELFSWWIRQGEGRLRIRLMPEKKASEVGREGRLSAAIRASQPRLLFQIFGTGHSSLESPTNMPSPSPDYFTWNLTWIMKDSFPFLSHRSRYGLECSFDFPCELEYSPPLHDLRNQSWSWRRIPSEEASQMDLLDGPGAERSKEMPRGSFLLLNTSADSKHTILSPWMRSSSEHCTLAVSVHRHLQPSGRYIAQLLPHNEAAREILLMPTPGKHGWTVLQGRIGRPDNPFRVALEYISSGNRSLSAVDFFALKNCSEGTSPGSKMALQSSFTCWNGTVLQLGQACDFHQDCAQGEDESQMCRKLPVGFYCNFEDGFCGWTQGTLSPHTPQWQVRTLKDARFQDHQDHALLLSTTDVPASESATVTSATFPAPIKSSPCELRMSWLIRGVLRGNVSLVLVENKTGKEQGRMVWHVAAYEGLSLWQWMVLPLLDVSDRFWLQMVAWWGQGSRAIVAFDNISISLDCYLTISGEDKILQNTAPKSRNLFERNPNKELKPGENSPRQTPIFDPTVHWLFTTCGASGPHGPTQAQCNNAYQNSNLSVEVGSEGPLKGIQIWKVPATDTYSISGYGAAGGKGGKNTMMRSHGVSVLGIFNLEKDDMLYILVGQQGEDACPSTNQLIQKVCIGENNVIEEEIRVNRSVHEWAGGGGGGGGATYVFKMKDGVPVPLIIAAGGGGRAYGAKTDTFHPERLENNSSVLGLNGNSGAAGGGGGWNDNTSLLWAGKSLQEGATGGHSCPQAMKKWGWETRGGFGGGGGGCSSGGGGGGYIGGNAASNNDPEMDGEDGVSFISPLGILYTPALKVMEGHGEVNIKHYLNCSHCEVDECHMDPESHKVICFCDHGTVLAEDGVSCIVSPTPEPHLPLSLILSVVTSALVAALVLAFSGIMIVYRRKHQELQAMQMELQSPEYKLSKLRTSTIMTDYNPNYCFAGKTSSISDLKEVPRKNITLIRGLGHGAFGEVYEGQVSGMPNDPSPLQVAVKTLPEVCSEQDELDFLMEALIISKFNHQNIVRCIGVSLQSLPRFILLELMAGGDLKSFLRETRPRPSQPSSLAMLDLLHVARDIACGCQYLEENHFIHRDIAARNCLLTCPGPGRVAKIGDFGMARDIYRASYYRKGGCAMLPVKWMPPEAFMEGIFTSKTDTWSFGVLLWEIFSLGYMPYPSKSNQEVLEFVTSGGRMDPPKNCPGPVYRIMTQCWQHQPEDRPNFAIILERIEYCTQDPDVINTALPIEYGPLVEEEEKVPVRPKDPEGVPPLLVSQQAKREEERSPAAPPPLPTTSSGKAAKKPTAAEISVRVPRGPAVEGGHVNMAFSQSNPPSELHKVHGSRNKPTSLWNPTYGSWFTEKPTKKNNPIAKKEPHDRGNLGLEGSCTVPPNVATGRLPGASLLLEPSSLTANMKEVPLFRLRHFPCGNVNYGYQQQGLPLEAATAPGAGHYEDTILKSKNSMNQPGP
UniProt Q9BXA7, sequence (whole entry, looked up): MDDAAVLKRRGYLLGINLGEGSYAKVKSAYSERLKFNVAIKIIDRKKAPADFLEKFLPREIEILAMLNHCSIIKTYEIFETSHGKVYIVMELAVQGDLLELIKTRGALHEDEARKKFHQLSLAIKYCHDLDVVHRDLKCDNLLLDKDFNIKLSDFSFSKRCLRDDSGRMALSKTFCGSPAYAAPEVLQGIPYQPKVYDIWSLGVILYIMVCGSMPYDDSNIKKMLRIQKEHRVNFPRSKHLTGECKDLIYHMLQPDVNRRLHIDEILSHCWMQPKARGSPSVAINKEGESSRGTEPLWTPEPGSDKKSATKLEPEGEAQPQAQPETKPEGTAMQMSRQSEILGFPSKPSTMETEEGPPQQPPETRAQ
UniProt Q13131, sequence (whole entry, looked up): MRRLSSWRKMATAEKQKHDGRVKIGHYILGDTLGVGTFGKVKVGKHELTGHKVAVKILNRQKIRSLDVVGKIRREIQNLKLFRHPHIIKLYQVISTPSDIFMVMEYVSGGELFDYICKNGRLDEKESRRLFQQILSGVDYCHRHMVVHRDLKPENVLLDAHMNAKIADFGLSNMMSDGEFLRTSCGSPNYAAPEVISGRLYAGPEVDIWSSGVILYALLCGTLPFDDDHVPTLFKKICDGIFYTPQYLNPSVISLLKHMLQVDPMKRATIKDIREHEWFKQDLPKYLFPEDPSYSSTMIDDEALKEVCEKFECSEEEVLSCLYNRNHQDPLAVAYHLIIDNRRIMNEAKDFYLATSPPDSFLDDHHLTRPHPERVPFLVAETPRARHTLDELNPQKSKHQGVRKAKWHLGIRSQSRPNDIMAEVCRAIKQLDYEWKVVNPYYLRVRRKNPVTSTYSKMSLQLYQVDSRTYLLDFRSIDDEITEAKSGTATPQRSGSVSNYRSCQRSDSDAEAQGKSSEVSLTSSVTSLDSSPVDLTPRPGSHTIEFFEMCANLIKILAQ
UniProt Q9Y243, sequence (whole entry, looked up): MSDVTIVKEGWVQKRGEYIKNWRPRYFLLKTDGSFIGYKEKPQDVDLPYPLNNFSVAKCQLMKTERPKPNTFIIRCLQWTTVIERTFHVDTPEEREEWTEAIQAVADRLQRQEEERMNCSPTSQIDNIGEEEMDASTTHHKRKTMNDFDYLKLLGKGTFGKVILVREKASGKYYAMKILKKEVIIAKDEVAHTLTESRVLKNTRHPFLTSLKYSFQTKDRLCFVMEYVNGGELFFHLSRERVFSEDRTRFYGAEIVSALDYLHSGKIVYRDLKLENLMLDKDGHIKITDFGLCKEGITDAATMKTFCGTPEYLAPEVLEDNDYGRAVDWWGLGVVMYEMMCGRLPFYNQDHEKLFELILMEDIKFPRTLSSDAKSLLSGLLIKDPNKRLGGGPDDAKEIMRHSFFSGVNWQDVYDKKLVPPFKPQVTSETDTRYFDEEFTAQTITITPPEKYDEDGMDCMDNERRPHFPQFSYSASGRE
UniProt Q07002, sequence (whole entry, looked up): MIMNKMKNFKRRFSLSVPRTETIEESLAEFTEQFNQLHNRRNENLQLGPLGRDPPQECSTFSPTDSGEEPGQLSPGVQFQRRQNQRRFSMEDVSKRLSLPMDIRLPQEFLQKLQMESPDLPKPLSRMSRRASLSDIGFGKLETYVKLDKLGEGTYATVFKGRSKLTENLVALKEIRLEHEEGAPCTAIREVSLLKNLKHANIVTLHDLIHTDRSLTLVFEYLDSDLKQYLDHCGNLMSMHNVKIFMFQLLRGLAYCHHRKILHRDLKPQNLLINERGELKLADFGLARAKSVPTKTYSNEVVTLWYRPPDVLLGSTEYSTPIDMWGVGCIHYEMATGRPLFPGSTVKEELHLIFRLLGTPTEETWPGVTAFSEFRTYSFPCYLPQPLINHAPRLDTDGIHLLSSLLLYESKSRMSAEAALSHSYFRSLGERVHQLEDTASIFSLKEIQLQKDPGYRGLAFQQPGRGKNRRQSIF

Block 1
Compound: CCC1(c2cccc(-c3cn(C)nc3C)c2)C2=C(Nc3n[nH]cc31)C(F)C(C)(C)CC2=O (single isomer, unassigned)
Tested at: 1 µM
target	test	scale	remaining binding [%]
AKT3 (Homo sapiens, UniProt Q9Y243)	kinase binding, KINOMEscan	relative to: DMSO control	92
PRKAA1 (Homo sapiens, UniProt Q13131)	binding, competition with immobilised ligand		96
PIK3CA (Homo sapiens, UniProt P42336, Q546K)	kinase binding, KINOMEscan	relative to: DMSO control	48
MAP4K5 (Homo sapiens, UniProt Q9Y4K4)	kinase binding, KINOMEscan	relative to: DMSO control	100
SIK2 (Homo sapiens, UniProt Q9H0K1)	binding, competition with immobilised ligand		100
TNK1 (Homo sapiens, UniProt Q13470)	kinase binding, KINOMEscan	relative to: DMSO control	100
TSSK1B (Homo sapiens, UniProt Q9BXA7)	kinase binding, KINOMEscan	relative to: DMSO control	90
CDK18 (Homo sapiens, UniProt Q07002)	binding, competition with immobilised ligand		100
PLK2 (Homo sapiens, UniProt Q9NYY3)	kinase binding, KINOMEscan	relative to: DMSO control	77
PAK6 (Homo sapiens, UniProt Q9NQU5)	binding, competition with immobilised ligand		100
ALK (Homo sapiens, UniProt Q9UM73, L1196M)	kinase binding, KINOMEscan	relative to: DMSO control	58
Tyrosine-protein kinase ABL1, non-phosphorylated (ABL1, Homo sapiens, UniProt P00519, Q252H)	kinase binding, KINOMEscan	relative to: DMSO control	87
TLK1 (Homo sapiens, UniProt Q9UKI8)	kinase binding, KINOMEscan	relative to: DMSO control	96
EPHB4 (Homo sapiens, UniProt P54760)	binding, competition with immobilised ligand		100

Block 2
SMILES: CCCN1C(=O)C(O)(C(=O)O)Oc2cc(F)ccc21 (stereo not shown)
Organism: Arabidopsis thaliana
Strain: Col-0
Setting: seed germination
setting	root length [cm]
25 µg/mL	0.581
50 µg/mL	0.41
100 µg/mL	0.129
3.125 µg/mL	1.08

Block 3
Compound: Cc1ncsc1-c1ccc(C2(NC(=O)C3CC(O)CN3C(=O)C(NC(=O)c3ccc(COc4c(-c5c(C)c(F)cc6[nH]ncc56)c(C5CC5)cc5c(N6CC7CC6CN7)nc(OC6CCOCC6)nc45)cc3)C(C)(C)C)CC2)cc1 (stereo not shown)
Cell line: AsPC-1
Technique: in-cell ELISA
setting	phospho-ERK1/2 level
100 nM, individual replicates	84.1% and 90.2% and 87% and 85.9% and 99.9%
30 nM, individual replicates	108% and 98.8% and 104% and 102% and 101%
1 µM, individual replicates	21.6% and 54.2% and 37.2% and 52.6% and 23.4% and 22.2%
3 µM, per-experiment values	19.8% and 18.6% and 10.4%
1 nM, per-experiment values	88.1% and 103% and 97.4%

Block 4
Compound: CCN1/C(=C/C=C2\CCCC(/C=C/C3=[N+](CC)c4ccccc4C3(C)C)=C2NCCCCCCCCN2CCC(Nc3nc4ccccc4n3Cc3ccc(F)cc3)CC2)C(C)(C)c2ccccc21
Cell line: U-87 MG
Tested at: concentration not given
Relative to: DMSO
test	log2 fold change
refers to: STX5 mRNA	0.991
refers to: PRADC1 mRNA	-1.24
refers to: PTGFRN mRNA	-1.37
refers to: TCF4 mRNA	-2.17
refers to: FRMD4A mRNA	-1.86
refers to: CD248 mRNA	-7.01
refers to: S100A4 mRNA	-2.37
refers to: CTHRC1 mRNA	-2.14
refers to: TGM2 mRNA	-1.45
refers to: PGAM4 mRNA	-0.827
refers to: KIF21B mRNA	-1.39
